Published values collected from several papers.
Compare with care: the assays were run in different laboratories. pIC50, pKd, pKi: −log10 of the molar value.
Sequence of UniProt Q9Y2K6 (whole entry, looked up): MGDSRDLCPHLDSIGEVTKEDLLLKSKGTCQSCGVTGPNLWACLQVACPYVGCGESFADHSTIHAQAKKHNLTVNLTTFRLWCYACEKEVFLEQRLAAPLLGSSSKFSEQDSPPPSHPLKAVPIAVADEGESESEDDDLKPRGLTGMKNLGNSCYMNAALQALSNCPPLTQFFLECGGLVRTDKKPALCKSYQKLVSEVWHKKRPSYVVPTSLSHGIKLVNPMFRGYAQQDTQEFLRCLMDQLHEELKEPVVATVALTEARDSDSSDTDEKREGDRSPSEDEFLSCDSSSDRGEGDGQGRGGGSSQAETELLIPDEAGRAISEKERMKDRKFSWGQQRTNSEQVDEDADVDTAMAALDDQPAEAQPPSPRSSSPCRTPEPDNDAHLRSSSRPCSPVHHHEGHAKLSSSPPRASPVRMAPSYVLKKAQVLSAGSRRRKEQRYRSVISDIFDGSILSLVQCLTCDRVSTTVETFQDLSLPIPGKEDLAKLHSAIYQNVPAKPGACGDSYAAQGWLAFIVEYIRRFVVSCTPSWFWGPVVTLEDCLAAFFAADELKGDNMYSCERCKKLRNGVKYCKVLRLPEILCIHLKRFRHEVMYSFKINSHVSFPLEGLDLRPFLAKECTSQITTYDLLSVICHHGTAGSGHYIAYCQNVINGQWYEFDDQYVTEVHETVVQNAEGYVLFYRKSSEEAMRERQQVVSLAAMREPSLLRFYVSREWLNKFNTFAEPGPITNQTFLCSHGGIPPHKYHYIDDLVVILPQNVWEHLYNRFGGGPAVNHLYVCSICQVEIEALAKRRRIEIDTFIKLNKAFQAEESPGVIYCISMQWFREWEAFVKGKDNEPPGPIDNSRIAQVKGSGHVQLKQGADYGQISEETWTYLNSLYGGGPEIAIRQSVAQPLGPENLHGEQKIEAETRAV
Sequence of UniProt Q70CQ1 (whole entry, looked up): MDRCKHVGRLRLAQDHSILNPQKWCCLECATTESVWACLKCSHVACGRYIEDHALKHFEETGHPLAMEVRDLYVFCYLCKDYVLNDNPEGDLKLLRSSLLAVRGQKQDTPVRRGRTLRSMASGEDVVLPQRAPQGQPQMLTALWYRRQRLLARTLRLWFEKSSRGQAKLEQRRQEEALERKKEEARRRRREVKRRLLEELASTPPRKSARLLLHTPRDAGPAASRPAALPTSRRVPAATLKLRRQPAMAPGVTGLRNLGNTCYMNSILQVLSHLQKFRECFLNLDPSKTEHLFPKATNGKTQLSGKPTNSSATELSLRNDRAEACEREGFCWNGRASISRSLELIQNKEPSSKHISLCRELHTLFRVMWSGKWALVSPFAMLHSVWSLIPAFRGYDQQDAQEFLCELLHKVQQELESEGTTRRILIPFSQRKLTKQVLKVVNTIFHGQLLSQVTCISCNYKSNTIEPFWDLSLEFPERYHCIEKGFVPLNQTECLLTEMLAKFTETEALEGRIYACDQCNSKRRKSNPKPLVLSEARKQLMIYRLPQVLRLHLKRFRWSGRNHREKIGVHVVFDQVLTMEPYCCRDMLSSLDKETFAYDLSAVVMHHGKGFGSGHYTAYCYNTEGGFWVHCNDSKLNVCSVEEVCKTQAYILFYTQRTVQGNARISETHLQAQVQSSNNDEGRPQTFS

Structure (SMILES) | tested on | assay | test system | setting | scale | quantity | result
CNC(=O)c1cc(Oc2ccc(NC(=O)Nc3ccc(Cl)c(C(F)(F)F)c3)cc2)ccn1 | NLRP3 inflammasome (mouse) | – | mouse BMDM | 10 µM | – | inhibition | 22.2%
Cn1cc(-c2ccc(-c3cncc(Cl)c3N3CCC4(CCNC4=O)CC3)cc2)cn1 | COLO 205 | gene expression, microarray, measured: VLDLR mRNA | – | concentration not given, 2 h | baseline: untreated cells | log2 fold change | 2.22
CC(C)NCC(O)c1ccc(O)c(O)c1 (centres unmarked) | – | – | ventricular cardiomyocytes, C57BL/6 mouse | dose not given, 0.272 s | – | sarcomere length | 1.68 µm
O=C(O)CCC1=Nc2cccc3cccc(c23)N1 | Ubiquitin carboxyl-terminal hydrolase 49, ZnF-UBD domain (USP49, Homo sapiens, UniProt Q70CQ1) | – | – | – | – | pKd | < 3.00
Cc1nc(N(C)C(=O)Cc2ccc(-c3ccccn3)cc2)sc1S(N)(=O)=O | human alphaherpesvirus 1 | live-cell GFP imaging | primary human fibroblasts, K26 GFP | – | – | pIC50 | 6.82
O=c1ccn([C@H]2C[C@H](O)[C@@H](CO)O2)c(=O)[nH]1 | – | binding, equilibrium dialysis LC-MS | – | 5 µM, thermostabilized A2AR-BRIL construct | baseline: no-protein control, direction not given | z-scored log2 fold change | 0.456
CC(C)Nc1cc(-c2c[nH]c(C(=O)N[C@H](CO)c3cccc(Cl)c3)c2)c(Cl)cn1 | NLRP3 inflammasome (mouse) | – | mouse BMDM | 10 µM | – | inhibition | -29.8%
O=C(O)[C@@H](O)[C@H](O)[C@H](O)[C@@H](O)C(=O)O | – | binding, equilibrium dialysis LC-MS | – | 5 µM, thermostabilized A2AR-BRIL construct | baseline: no-protein control, direction not given | z-scored log2 fold change | 0.195
O=C(O)c1ccc(Nc2ncc3c(n2)-c2ccc(Cl)cc2C(c2c(F)cccc2F)=NC3)cc1 | iCell Cardiomyocytes (hiPSC-derived) | xCELLigence Cardio impedance | – | concentration not given, 2 h | baseline: control | beat amplitude | 100%
O=C(O)CCC(=O)Nc1cccc2ccccc12 | Ubiquitin carboxyl-terminal hydrolase 20, ZnF-UBD domain (USP20, Homo sapiens, UniProt Q9Y2K6) | – | – | – | – | pKd | < 3.00
COc1cc2c(N3CCN(C(=O)Nc4ccc(OC(C)C)cc4)CC3)ncnc2cc1OCCCN1CCCCC1 | iCell Cardiomyocytes (hiPSC-derived) | cellular impedance | – | concentration not given, 24 h | baseline: control | cell index | 98.1%
COc1cc(OC)c(/C=C/S(=O)(=O)Cc2ccc(OC)c(NCC(=O)O)c2)c(OC)c1 | NLRP3 inflammasome (mouse) | – | mouse BMDM | 10 µM | – | inhibition | 20.8%
CC(=O)N[C@@H](CC(=O)O)C(=O)O | – | binding, equilibrium dialysis LC-MS | – | 5 µM, thermostabilized A2AR-BRIL construct | baseline: no-protein control, direction not given | z-scored log2 fold change | 0.238
Nc1nc(-c2ccccc2)nc2[nH]nc(Nc3ccc(C(F)(F)F)cc3)c12 | coxsackievirus B3 | – | NMRI mouse, CVB3 chronic myocarditis | oral, 100 mg/kg twice daily, day 0-6, day 0 | direction not given | clinical score | 0
OC(CCN1CCCCC1)(c1ccccc1)C1CC2C=CC1C2 (centres unmarked) | – | resting-state EEG | healthy elderly humans | oral, 2 mg, eyes open, LS mean | – | EEG power, delta, Fz-Cz | 8.5 µV²
COc1cc(N2CCC(N3CCN(C)CC3)CC2)ccc1Nc1ncc(Cl)c(Nc2ccccc2S(=O)(=O)C(C)C)n1 | iCell Cardiomyocytes (hiPSC-derived) | CellTiter-Glo | – | concentration not given, 24 h | baseline: control | ATP level | 83.1%
N=C(N)NCCC[C@H](N)C(=O)O | – | binding, equilibrium dialysis LC-MS | – | 5 µM, thermostabilized A2AR-BRIL construct | baseline: no-protein control, direction not given | z-scored log2 fold change | 0.441
NS(=O)(=O)c1nnc(NC(=O)CN2CC3CCC2CC3)s1 | Alpha-carbonic anhydrase (Enterococcus faecium, UniProt Q3XYE8) | CO2 hydration, inhibitor, stopped-flow kinetics | – | – | – | pKi | 7.44
Cc1cccc(-c2nn3c(c2-c2ccnc4ccc(C(N)=O)cc24)CCC3)n1 | NLRP3 inflammasome (mouse) | – | mouse BMDM | 10 µM | – | inhibition | 19%
Cc1ncc(C[n+]2csc(CCO[P@](=O)(O)OP(=O)(O)O)c2C)c(N)n1 | – | binding, equilibrium dialysis LC-MS | – | 5 µM, thermostabilized A2AR-BRIL construct | baseline: no-protein control, direction not given | z-scored log2 fold change | -0.128
COc1cc2nccc(Oc3ccc(NC(=O)Nc4cc(C)on4)c(Cl)c3)c2cc1OC | NLRP3 inflammasome (mouse) | – | mouse BMDM | 10 µM | – | inhibition | -86.6%
COc1ccc2[nH]cc(CCNC(C)=O)c2c1 | – | binding, equilibrium dialysis LC-MS | – | 5 µM, thermostabilized A2AR-BRIL construct | baseline: no-protein control, direction not given | z-scored log2 fold change | 0.544
Oc1ccccc1-c1n[nH]cc1-c1ccnc2ccccc12 | TOR1 (Candida albicans) | kinase binding, MIB/MS competition | Candida albicans lysate | 10 µM | baseline: DMSO | log2 fold change | 0.01

Excerpt of the above:
Structure (SMILES) | tested on | assay | test system | setting | scale | quantity | result
Cc1ncc(C[n+]2csc(CCO[P@](=O)(O)OP(=O)(O)O)c2C)c(N)n1 | – | binding, equilibrium dialysis LC-MS | – | 5 µM, thermostabilized A2AR-BRIL construct | baseline: no-protein control, direction not given | z-scored log2 fold change | -0.128
COc1cc2nccc(Oc3ccc(NC(=O)Nc4cc(C)on4)c(Cl)c3)c2cc1OC | NLRP3 inflammasome (mouse) | – | mouse BMDM | 10 µM | – | inhibition | -86.6%
